Published values from different studies.
Parts stem from different laboratories: compare values within a part only. Values joined by “and” are separate records of one study, mostly repeats; a detail may differ.
UniProt Q9Y243, sequence (whole entry, looked up): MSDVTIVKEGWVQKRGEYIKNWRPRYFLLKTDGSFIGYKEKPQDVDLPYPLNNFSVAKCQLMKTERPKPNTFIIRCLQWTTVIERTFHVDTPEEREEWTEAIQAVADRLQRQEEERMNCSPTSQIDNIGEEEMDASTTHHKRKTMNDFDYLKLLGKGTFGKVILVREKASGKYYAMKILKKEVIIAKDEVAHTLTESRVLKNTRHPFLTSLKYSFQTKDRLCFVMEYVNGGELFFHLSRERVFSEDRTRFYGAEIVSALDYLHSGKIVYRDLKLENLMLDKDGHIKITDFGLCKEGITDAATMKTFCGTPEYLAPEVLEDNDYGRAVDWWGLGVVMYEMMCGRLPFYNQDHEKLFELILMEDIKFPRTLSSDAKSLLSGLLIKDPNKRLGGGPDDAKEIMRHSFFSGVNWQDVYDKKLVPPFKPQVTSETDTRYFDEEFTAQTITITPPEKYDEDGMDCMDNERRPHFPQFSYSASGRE

Sample 1 — read-out: enzyme activity; mode: inhibitor; tested at: 0.5 µM; reference: control
Target: Protein kinase C iota type (PRKCI, Homo sapiens, UniProt P41743)
UniProt P41743, sequence (whole entry, looked up): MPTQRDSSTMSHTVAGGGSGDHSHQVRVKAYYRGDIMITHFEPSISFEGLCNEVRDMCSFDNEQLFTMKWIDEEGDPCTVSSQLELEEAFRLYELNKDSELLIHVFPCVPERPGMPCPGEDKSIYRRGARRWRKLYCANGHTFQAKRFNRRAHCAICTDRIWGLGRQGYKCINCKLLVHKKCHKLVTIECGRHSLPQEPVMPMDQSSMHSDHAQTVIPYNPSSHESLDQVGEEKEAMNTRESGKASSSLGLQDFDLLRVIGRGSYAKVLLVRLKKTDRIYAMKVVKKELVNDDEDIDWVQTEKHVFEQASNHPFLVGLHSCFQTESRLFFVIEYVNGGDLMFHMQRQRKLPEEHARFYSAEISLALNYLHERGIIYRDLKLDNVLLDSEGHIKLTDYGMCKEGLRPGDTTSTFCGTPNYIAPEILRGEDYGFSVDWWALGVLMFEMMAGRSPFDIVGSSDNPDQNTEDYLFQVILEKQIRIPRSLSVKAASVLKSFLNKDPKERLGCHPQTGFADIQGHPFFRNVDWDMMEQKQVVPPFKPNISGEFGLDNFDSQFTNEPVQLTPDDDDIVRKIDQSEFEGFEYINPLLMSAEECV
Compound	remaining activity
Cc1cc2ncc(-c3ccccc3)nc2cc1C	98%
O=c1cc(-c2cccc3c2Sc2ccccc2S3)oc(N2CCOCC2)c1	103%
Cn1nc2c3c(cccc31)C(=O)c1ccccc1-2	98.5%
CCN(CC)CCNC(=O)c1c(C)[nH]c(/C=C2\C(=O)Nc3ccc(F)cc32)c1C	103%
N#Cc1c(NC(=O)c2cccc3ccccc23)sc2c1CCCC2	95.9%
c1ccc(-c2[nH]ncc2-c2ccnc3ccccc23)nc1	99%
COc1cc2ncnc(Nc3ccc(O)c(Br)c3)c2cc1OC	94%
CCN(CC)CCNC(=O)c1c(C)[nH]c(/C=C2\C(=O)Nc3ccc(Cl)cc32)c1C	91.9%
C[C@@H]1CCN(C(=O)CC#N)C[C@@H]1N(C)c1ncnc2[nH]ccc12	103%
CCOc1nc(NC(=O)Cc2cc(OC)ccc2OC)cc(N)c1C#N	100%
Nc1cccc(-c2cc3c(Oc4cccc(O)c4)ncnc3[nH]2)c1	84.7%
O=C1c2ccccc2-c2n[nH]c3cccc1c23	95%
Cc1cn(-c2cc(NC(=O)c3ccc(C)c(Nc4nccc(-c5cccnc5)n4)c3)cc(C(F)(F)F)c2)cn1	108%
CCN(CC)C(=O)c1ccc(Nc2nc(OCC3CCCCC3)c3[nH]cnc3n2)cc1	97.2%
c1ccc(-c2cnc(Nc3ccc(OCCN4CCCC4)cc3)s2)cc1	93.1%
COc1cc2ncnc(Nc3cccc(Cl)c3)c2cc1OC	97.5%
Cc1nc2cc3nc(-c4cccs4)cnc3cc2n1C	99.1%
COc1cc2c(cc1OC)-c1[nH]nc(Nc3cccc(F)c3)c1C2	95.5%
O=C(NC(NC(=S)Nc1ccc(F)c([N+](=O)[O-])c1)C(Cl)(Cl)Cl)C(c1ccccc1)c1ccccc1 (stereo not drawn)	94%
O=C1C(Cl)=C(N2C(=O)CCC2=O)C(=O)c2ccccc21	96.6%
N#C/C(=C\c1ccc(O)c(O)c1)C(=O)NCc1ccccc1	96.4%
Ic1cccc(CSc2nnc(-c3ccncc3)o2)c1	96.4%
CN(C)C[C@H]1CCn2c(c(C3=C(c4cn(C)c5ccccc45)C(=O)NC3=O)c3ccccc32)C1	36.2%
O=C(Nc1cccc(Nc2nccc(Nc3cccc(C(F)(F)F)c3)n2)c1)C1CC1	91.3%
CN([C@@H](Cc1ccc(OS(=O)(=O)c2cccc3cnccc23)cc1)C(=O)N1CCN(c2ccccc2)CC1)S(=O)(=O)c1cccc2cnccc12	93.8%

Sample 2 — cell line: mouse MPNST tumor cells; method: high-content immunofluorescence imaging; item: nuclear SOX9; tested at: 10 µM; time: 12 h; notes: mean of 2 replicates; reference: DMSO control; reading: higher = more nuclear SOX9
SMILES	nuclear SOX9 intensity
CCC(C)N(C)C(=O)c1cc2ccccc2c(-c2ccccc2Cl)n1 (stereo not drawn)	92.3 % of DMSO
CN=c1nc(-c2ccccc2)n(-c2ccccc2)s1	100 % of DMSO
CC(C)C[C@H](NC(=O)[C@@H](O)[C@H](N)Cc1ccccc1)C(=O)O	98.7 % of DMSO
COC(=O)C1=C(C)NC(C)=C(C(=O)OCCSc2ccccc2)C1C (stereo not drawn)	124 % of DMSO
Cc1cc(C=C2SC(=O)N(c3ccccc3)C2=O)c(C)n1-c1cccnc1	108 % of DMSO
Cc1c(NC(C)C)c(=O)n(-c2ccccc2)n1C	71.4 % of DMSO
O=C(O)[C@@H]1[C@H](C(=O)O)NCCN1C(=O)c1ccc2c(ccc3ccccc32)c1.O=C(O)[C@H]1NCCN(C(=O)c2ccc3c(ccc4ccccc43)c2)[C@H]1C(=O)O	94.8 % of DMSO

Sample 3 — cell line: Huh-7; tested at: 10 µM; time: 24 h
SMILES	viability
CNCC[C@@H](Oc1ccccc1C)c1ccccc1	96.6%
CS(=O)(=O)OCCCCOS(C)(=O)=O	78.6%
CCC(=O)OCC(=O)[C@@]1(OC(=O)CC)[C@@H](C)C[C@H]2[C@@H]3CCC4=CC(=O)C=C[C@]4(C)[C@@]3(Cl)[C@@H](O)C[C@@]21C	101%
CCOC(=O)c1ncn2c1CN(C)C(=O)c1cc(F)ccc1-2	97.6%
OC[C@H]1O[C@@H](O[C@@H]2[C@@H](CO)OC(O)(CO)[C@H]2O)[C@H](O)[C@@H](O)[C@H]1O (mixture of isomers)	93.3%
O=C(O)c1ccccc1Nc1cccc(C(F)(F)F)c1	99.4%
NC(=O)c1ncn([C@@H]2O[C@H](CO)[C@@H](O)[C@H]2O)n1	92.7%
Cc1ccc(C)c(OCCCC(C)(C)C(=O)O)c1	98.2%
OCc1cccnc1	102%
Cc1noc(NS(=O)(=O)c2ccc(N)cc2)c1C	98.3%
CC1COc2c(N3CCN(C)CC3)c(F)cc3c(=O)c(C(=O)O)cn1c23 (stereo not drawn)	101%

Sample 4 — cell line: A-375; tested at: 100 µM; time: 18 h
Compound	viability
Nc1nc(=O)n([C@@H]2CS[C@H](CO)O2)cc1F	95.7%
O=C(O[C@H]1C[N+]2(CCCOc3ccccc3)CCC1CC2)C(O)(c1cccs1)c1cccs1	99.2%
O=C(O)c1cccc(-c2noc(-c3ccccc3F)n2)c1	105%
NC[C@H](O)c1ccc(O)c(O)c1	131% and 133%
Cc1c(N(C)CS(=O)(=O)O)c(=O)n(-c2ccccc2)n1C	93.2% and 113%
O=C(c1ccc(F)c(F)c1Nc1ccc(I)cc1F)N1CC(O)([C@@H]2CCCCN2)C1	8.46%

Other studies, line by line
SMILES	tested on	assay	test system	setting	measurement	result
CC(C)n1cnc(-c2ccc(F)cc2)c1-c1ncc(C(=O)Nc2ccc(N3CCN(C)CC3)cc2)[nH]1			IPF patients	30 mg once daily, adverse event	Hypocalcaemia incidence	0%
NC1(c2ccc(-c3nc4c(O)ccnn4c3-c3ccccc3)cc2)CCC1	AKT3 (Homo sapiens, UniProt Q9Y243)	target engagement in cells, BRET			EC50	> 50 µM

Some of these lines once more (sample 3):
SMILES	viability
CNCC[C@@H](Oc1ccccc1C)c1ccccc1	96.6%
CS(=O)(=O)OCCCCOS(C)(=O)=O	78.6%
CCC(=O)OCC(=O)[C@@]1(OC(=O)CC)[C@@H](C)C[C@H]2[C@@H]3CCC4=CC(=O)C=C[C@]4(C)[C@@]3(Cl)[C@@H](O)C[C@@]21C	101%
CCOC(=O)c1ncn2c1CN(C)C(=O)c1cc(F)ccc1-2	97.6%
OC[C@H]1O[C@@H](O[C@@H]2[C@@H](CO)OC(O)(CO)[C@H]2O)[C@H](O)[C@@H](O)[C@H]1O (mixture of isomers)	93.3%
O=C(O)c1ccccc1Nc1cccc(C(F)(F)F)c1	99.4%
